Assay results collected from several papers.
A part holds a random share of what one study measured. Several values in a cell are separate wells, animals, samples, runs or records.
UniProt O14730, sequence (whole entry, looked up): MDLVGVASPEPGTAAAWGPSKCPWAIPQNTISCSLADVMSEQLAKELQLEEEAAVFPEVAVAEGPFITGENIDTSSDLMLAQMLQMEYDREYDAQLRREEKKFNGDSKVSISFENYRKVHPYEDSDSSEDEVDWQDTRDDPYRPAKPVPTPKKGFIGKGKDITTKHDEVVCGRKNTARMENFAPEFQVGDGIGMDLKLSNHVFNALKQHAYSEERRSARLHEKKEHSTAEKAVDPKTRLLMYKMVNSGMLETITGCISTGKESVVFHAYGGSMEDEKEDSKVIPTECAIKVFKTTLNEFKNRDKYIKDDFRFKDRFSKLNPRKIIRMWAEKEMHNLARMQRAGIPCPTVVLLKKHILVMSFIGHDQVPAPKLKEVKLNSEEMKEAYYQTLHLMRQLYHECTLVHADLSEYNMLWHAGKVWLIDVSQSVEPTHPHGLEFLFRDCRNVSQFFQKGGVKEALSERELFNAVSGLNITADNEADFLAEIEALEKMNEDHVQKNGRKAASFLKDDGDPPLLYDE
UniProt Q5S007, sequence (whole entry, looked up): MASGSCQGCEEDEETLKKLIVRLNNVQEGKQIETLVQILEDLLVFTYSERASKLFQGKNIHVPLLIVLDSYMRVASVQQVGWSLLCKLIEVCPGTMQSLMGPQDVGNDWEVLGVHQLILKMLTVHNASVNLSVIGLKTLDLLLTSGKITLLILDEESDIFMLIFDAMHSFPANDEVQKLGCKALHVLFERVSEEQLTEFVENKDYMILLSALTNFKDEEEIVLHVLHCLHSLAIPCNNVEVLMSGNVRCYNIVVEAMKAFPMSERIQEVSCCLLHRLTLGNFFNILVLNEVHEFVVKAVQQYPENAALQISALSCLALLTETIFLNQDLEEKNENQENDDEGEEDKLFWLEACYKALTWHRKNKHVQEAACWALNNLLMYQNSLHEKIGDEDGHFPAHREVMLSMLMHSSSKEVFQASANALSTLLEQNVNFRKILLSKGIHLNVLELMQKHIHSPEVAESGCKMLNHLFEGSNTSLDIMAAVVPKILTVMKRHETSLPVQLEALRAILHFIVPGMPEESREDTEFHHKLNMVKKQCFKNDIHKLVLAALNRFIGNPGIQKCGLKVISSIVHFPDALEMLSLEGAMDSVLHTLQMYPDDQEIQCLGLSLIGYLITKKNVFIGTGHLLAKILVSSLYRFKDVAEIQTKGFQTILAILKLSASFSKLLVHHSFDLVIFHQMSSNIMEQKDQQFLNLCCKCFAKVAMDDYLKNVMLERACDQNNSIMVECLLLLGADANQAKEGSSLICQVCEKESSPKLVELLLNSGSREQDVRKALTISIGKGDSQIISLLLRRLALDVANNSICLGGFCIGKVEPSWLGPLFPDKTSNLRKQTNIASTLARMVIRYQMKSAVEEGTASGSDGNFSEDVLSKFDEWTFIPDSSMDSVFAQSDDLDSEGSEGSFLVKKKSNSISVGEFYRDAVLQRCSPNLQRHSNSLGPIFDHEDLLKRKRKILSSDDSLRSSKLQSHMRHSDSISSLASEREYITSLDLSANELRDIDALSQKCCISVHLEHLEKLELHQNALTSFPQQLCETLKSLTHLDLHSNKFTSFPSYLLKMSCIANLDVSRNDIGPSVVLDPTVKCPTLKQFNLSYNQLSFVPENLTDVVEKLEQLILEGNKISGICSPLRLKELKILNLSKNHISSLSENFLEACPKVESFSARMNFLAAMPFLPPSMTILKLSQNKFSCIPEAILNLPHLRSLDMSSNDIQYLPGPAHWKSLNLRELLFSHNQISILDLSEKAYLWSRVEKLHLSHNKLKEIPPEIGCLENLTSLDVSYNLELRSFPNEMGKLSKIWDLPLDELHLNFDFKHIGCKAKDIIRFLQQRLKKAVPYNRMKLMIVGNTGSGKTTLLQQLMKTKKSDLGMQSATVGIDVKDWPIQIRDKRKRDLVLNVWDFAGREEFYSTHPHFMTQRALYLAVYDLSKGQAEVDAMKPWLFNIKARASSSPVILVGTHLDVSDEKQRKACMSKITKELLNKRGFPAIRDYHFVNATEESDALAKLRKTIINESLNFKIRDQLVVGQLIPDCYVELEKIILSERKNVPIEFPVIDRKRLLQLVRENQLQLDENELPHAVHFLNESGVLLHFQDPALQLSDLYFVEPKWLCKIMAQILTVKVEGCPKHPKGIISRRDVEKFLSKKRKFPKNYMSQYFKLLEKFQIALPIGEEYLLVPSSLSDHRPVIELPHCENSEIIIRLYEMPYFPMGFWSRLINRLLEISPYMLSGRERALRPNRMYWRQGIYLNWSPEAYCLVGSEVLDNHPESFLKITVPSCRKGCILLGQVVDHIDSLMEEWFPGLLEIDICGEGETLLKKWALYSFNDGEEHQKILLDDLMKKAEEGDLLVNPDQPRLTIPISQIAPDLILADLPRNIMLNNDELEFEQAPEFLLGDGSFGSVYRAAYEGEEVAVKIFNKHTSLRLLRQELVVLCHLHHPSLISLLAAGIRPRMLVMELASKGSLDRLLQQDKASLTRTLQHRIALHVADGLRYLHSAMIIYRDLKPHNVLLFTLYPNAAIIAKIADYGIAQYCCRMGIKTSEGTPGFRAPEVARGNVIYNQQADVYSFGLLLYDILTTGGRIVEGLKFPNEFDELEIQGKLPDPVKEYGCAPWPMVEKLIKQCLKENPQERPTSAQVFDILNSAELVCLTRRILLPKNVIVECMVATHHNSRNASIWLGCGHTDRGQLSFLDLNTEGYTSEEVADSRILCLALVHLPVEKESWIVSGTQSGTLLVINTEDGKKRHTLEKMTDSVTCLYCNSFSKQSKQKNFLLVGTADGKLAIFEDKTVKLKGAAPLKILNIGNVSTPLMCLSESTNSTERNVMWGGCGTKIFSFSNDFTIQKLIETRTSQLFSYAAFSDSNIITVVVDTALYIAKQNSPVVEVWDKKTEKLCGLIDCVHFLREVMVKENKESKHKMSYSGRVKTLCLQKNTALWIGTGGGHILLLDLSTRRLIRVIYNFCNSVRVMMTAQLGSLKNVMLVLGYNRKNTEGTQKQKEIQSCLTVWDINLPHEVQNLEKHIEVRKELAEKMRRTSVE
UniProt P27361, sequence (whole entry, looked up): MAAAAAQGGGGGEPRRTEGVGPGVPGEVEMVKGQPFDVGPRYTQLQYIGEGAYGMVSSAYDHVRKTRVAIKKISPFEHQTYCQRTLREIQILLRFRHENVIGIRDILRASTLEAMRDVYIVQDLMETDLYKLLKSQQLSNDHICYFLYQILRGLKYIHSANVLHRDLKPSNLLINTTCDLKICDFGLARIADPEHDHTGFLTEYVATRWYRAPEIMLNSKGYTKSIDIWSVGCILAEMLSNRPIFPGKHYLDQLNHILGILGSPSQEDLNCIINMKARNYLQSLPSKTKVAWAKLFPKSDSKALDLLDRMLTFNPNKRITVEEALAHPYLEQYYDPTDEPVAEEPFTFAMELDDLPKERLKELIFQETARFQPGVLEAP
UniProt P42336, sequence (whole entry, unmodified, looked up): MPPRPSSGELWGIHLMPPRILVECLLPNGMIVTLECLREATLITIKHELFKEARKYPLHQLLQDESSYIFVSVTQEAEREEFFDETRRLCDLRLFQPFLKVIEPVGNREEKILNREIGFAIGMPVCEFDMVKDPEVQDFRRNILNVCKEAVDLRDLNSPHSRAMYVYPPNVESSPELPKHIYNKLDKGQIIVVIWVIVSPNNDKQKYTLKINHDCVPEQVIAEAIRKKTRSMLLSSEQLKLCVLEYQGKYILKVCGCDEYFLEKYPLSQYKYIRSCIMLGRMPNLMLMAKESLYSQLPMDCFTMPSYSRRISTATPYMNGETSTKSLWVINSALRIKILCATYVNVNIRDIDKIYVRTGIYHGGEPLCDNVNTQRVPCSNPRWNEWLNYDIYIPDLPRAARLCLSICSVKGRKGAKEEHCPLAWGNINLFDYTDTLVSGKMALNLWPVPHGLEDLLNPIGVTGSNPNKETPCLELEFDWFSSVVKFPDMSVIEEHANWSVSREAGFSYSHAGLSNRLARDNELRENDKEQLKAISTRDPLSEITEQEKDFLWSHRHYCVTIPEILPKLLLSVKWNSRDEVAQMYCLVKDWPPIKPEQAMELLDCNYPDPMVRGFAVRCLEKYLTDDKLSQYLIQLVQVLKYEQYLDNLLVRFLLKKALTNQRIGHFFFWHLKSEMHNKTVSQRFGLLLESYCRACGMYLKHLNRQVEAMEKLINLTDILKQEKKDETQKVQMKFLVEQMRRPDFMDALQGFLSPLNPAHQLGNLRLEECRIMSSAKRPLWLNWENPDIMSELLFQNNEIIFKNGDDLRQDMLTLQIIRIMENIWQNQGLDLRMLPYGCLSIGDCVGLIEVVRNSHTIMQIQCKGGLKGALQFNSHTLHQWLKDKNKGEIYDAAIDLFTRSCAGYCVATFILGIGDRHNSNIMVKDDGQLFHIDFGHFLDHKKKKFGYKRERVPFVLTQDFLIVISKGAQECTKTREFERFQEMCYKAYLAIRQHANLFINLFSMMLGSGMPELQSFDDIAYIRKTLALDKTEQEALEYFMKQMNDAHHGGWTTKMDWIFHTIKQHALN

Block 1 — cell line: A-375; concentration: 100 µM; time: 18 h
Compound | viability
Cc1cccc(C)c1NC(=O)C1CCCCN1C (stereo not shown) | 107%
CNS(=O)(=O)Cc1ccc2[nH]cc(CCN(C)C)c2c1 | 88.3%
CN1CCN(c2c(F)cc3c(=O)c(C(=O)O)cn4c3c2OCN4C)CC1 | 88.7%
O=C(O)c1ccccc1Nc1cccc(C(F)(F)F)c1 | 91.5%
CC(=O)/N=c1/sc(S(N)(=O)=O)nn1C | 101%
O=C1c2c(O)cccc2C([C@@H]2O[C@H](CO)[C@@H](O)[C@H](O)[C@H]2O)c2cc(CO)cc(O)c21 (stereo partly shown) | 100%
Cc1ccc(=O)n(-c2ccccc2)c1 | 101%
CCN(Cc1ccncc1)C(=O)C(CO)c1ccccc1 (stereo not shown) | 95.3%
CC(=O)N[C@@H](CS)C(=O)O | 89%
Cc1cc(Nc2ncc(Cl)c(Nc3ccccc3S(=O)(=O)C(C)C)n2)c(OC(C)C)cc1C1CCNCC1 | 8.05%
CCCCCCCCCCCCCCCCOc1nc2ccc(C)cc2c(=O)o1 | 106%
CC1Cc2ccccc2N1NC(=O)c1ccc(Cl)c(S(N)(=O)=O)c1 (stereo not shown) | 99.8%
O=C(CS(=O)(=O)Cc1ccccc1)N1CCOCC1 | 105%
COc1cc([C@H]2Oc3cc([C@H]4Oc5cc(O)cc(O)c5C(=O)[C@@H]4O)ccc3O[C@@H]2CO)ccc1O | 91.7%
CC(C)c1nc(N(C)S(C)(=O)=O)nc(-c2ccc(F)cc2)c1/C=C/[C@@H](O)C[C@@H](O)CC(=O)O | 105% and 102%
Cc1ncc(C[n+]2csc(CCO)c2C)c(N)n1 | 91.5%
C=CC(=O)N1CCC[C@@H](n2nc(-c3ccc(Oc4ccccc4)cc3)c3c(N)ncnc32)C1 | 7.96%
Cc1cc(=O)[nH]c(=S)[nH]1 | 103%
CC#CCn1c(N2CCC[C@@H](N)C2)nc2c1c(=O)n(Cc1nc(C)c3ccccc3n1)c(=O)n2C | 63.6%

Block 2 — observed: cell-free assay; technique: competition with immobilised ligand; concentration: 0.1 µM
SMILES: CS(=O)(=O)N1CCCC(NC(=O)[C@H](CCC2CCCCC2)NC(=O)c2ccc(CNC(=O)c3cnc4ccccn34)cc2)C1 (stereo partly shown)
target | remaining binding [%]
Phosphatidylinositol 4,5-bisphosphate 3-kinase catalytic subunit beta isoform (PIK3CB, Homo sapiens, UniProt P42338) | 96
Cyclin-dependent kinase 16 (CDK16, Homo sapiens, UniProt Q00536) | 100
Tyrosine-protein kinase ABL1, phosphorylated (ABL1, Homo sapiens, UniProt P00519) | 61
Leucine-rich repeat serine/threonine-protein kinase 2 (LRRK2, Homo sapiens, UniProt Q5S007) | 64
Calcium/calmodulin-dependent protein kinase type 1 (CAMK1, Homo sapiens, UniProt Q14012) | 100
Mitogen-activated protein kinase kinase kinase 2 (MAP3K2, Homo sapiens, UniProt Q9Y2U5) | 100
Serine/threonine-protein kinase RIO3 (RIOK3, Homo sapiens, UniProt O14730) | 97
Hepatocyte growth factor receptor (MET, Homo sapiens, UniProt P08581, M1250T) | 69
Mitogen-activated protein kinase 3 (MAPK3, Homo sapiens, UniProt P27361) | 67
3-phosphoinositide-dependent protein kinase 1 (PDPK1, Homo sapiens, UniProt O15530) | 100
Serine/threonine-protein kinase/endoribonuclease IRE1 (ERN1, Homo sapiens, UniProt O75460) | 100
Tyrosine-protein kinase CSK (CSK, Homo sapiens, UniProt P41240) | 100
Epidermal growth factor receptor (EGFR, Homo sapiens, UniProt P00533, L861Q) | 100
Phosphatidylinositol 4,5-bisphosphate 3-kinase catalytic subunit alpha isoform (PIK3CA, Homo sapiens, UniProt P42336, C420R) | 93
STE20/SPS1-related proline-alanine-rich protein kinase (STK39, Homo sapiens, UniProt Q9UEW8) | 88
Death-associated protein kinase 2 (DAPK2, Homo sapiens, UniProt Q9UIK4) | 94
Serine/threonine-protein kinase RIO2 (RIOK2, Homo sapiens, UniProt Q9BVS4) | 100

Block 3 — observed: enzyme activity; action: inhibitor; concentration: 0.5 µM; reference: control
Target: Serine/threonine-protein kinase 26 (STK26, Homo sapiens, UniProt Q9P289)
UniProt Q9P289, sequence (whole entry, looked up): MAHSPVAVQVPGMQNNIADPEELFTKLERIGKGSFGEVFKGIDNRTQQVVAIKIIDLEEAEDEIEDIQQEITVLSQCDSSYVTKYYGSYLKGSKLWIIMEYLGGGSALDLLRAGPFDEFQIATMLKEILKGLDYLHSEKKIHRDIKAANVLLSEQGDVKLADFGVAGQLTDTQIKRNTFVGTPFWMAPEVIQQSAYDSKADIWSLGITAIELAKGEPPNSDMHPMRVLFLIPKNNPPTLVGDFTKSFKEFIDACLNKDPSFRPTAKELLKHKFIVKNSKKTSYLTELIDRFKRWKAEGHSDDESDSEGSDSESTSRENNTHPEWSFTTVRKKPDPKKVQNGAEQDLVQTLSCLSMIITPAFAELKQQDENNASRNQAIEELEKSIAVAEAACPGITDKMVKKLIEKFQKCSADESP
Structure (SMILES) | remaining activity [%]
Cn1cnc2cc3c(Nc4cccc(Br)c4)ncnc3cc21 | 94.3
Nc1[nH]nc2nnc(-c3c(-c4ccccc4)nn4ccccc34)cc12 | 75.9
COc1ccc(-c2cnc3c(-c4ccsc4)cnn3c2)cc1 | 95.7
CCOc1cc2ncnc(Nc3cccc(Br)c3)c2cc1OCC | 94.9
CS(=O)(=O)CCNCc1ccc(-c2ccc3ncnc(Nc4ccc(OCc5cccc(F)c5)c(Cl)c4)c3c2)o1 | 110
COc1cc2ncnc(Nc3ccc(OCc4ccccc4)cc3)c2cc1OC | 91.6
CN(C)CCCn1cc(C2=C(c3c[nH]c4ccccc34)C(=O)NC2=O)c2ccccc21 | 37.2
CCN1/C(=C/C(C)=O)Sc2ccc(OC)cc21 | 87.9
O=C(Nc1ccc(Cl)cc1)c1ccccc1NCc1ccncc1 | 90.9
Cc1nc(Nc2ncc(C(=O)Nc3c(C)cccc3Cl)s2)cc(N2CCN(CCO)CC2)n1 | 84.1
C[S+]([O-])c1ccc(-c2nc(-c3ccncc3)c(-c3ccc(F)cc3)[nH]2)cc1 (stereo not shown) | 96.8

Block 4 — cell line: mouse MPNST tumor cells; technique: high-content immunofluorescence imaging; item: nuclear SOX9; concentration: 10 µM; time: 12 h; notes: mean of 2 replicates; reference: DMSO control; direction: higher = more nuclear SOX9
Structure (SMILES) | nuclear SOX9 intensity
CCCN1CCN(c2ccc(C(=O)NC3(C(=O)NCC#N)CCCCC3)cc2)CC1 | 102 % of DMSO
CN(C)c1cccc(Oc2cnc(Nc3cccc(O)c3)nc2)c1 | 124 % of DMSO
O=C(O)c1cc(=O)c2ccccc2[nH]1 | 103 % of DMSO and 99.1 % of DMSO
CN1CCC(OC(c2ccccc2)c2ccccc2)CC1 | 102 % of DMSO
CCN(CC)CCc1nc(-c2ccccc2)no1 | 103 % of DMSO
Clc1cccc(C(c2ccc3[nH]cnc3c2)n2ccnc2)c1 (stereo not shown) | 82.8 % of DMSO
CN(C)CCOC(c1ccc(Cl)cc1)c1ccccn1 (stereo not shown) | 98.2 % of DMSO
CC(C(=O)O)c1ccc2c(c1)[nH]c1ccc(Cl)cc12 (stereo not shown) | 80.4 % of DMSO
O=C(NC(NC(=S)Nc1ccc(F)c([N+](=O)[O-])c1)C(Cl)(Cl)Cl)C(c1ccccc1)c1ccccc1 (stereo not shown) | 84.1 % of DMSO
Cc1c(OCC(F)(F)F)ccnc1C[S+]([O-])c1nc2ccccc2[nH]1 (stereo not shown) | 98.8 % of DMSO and 96.9 % of DMSO
O=C(Nc1ccccc1)N1CCC(Cc2cnc3ccccc3c2)CC1 | 118 % of DMSO

Excerpt of the above (block 2):
target | remaining binding [%]
Cyclin-dependent kinase 16 (CDK16, Homo sapiens, UniProt Q00536) | 100
Phosphatidylinositol 4,5-bisphosphate 3-kinase catalytic subunit alpha isoform (PIK3CA, Homo sapiens, UniProt P42336, C420R) | 93
Phosphatidylinositol 4,5-bisphosphate 3-kinase catalytic subunit beta isoform (PIK3CB, Homo sapiens, UniProt P42338) | 96
Tyrosine-protein kinase CSK (CSK, Homo sapiens, UniProt P41240) | 100
Tyrosine-protein kinase ABL1, phosphorylated (ABL1, Homo sapiens, UniProt P00519) | 61
